Measurements of several laboratories.
Compare with care: the assays were run in different laboratories. Values joined by “and” are separate records of one study, mostly repeats; a detail may differ. ± gives the spread as reported.

O=[N+]([O-])[O-].O=c1c(C=NN=C([S-])Nc2ccccc2)coc2ccccc12.[Cu+2].c1ccc(-c2ccccn2)nc1 — nicked circular DNA (DNA cleavage; supercoiled pUC19 DNA; 100 µM, 30 min, added: ascorbic acid): 20%
CN(CCC#N)c1nc(NCC[C@H]2CCCN2C)nc2sc(-c3ccccc3)cc12 — Hill slope (force-pCa relationship; C57BL/6N mice, skinned left ventricular papillary fibres; 30 µM, 30 min, DMSO -2.459): -3.33
CC(CCC(=O)NCc1ccc(C(=O)NO)cc1)C1CCC2C3C(O)CC4CC(O)CCC4(C)C3CCC12C (centres unmarked) — relative abundance (item: Glyco-conj; PCK rat (Pkhd1 mutant), peripheral blood; oral gavage, dose not given, 5 months; relative to: total bile acids): 14%
CC1(C)CCC(CN2CCN(c3ccc(C(=O)NS(=O)(=O)c4ccc(NCC5CCOCC5)c([N+](=O)[O-])c4)c(Oc4cnc5[nH]ccc5c4)c3)CC2)=C(c2ccc(Cl)cc2)C1 — tumour growth inhibition (mouse Maver1 xenograft; oral, 5 mg/kg once daily, day 14): 38%
COc1ccc(C(=O)CCc2cc(C(CCc3ccc(O)cc3OC)c3ccc(O)cc3)c(O)cc2OC)cc1 (racemic) — PGD2 level (human blood; 10 µM, added: A23187): 4 ± 4 pg/mL
COc1cnc2cccc(N3CCc4c(cc(Cn5ccnc5)cc4-c4cn(C)nc4C(F)(F)F)C3=O)c2c1 — tumour volume (BALB/c nude mice, MV4-11 xenograft; intraperitoneal, 100 mg/kg, day 10): 109 mm3 and 149 mm3 and 148 mm3 and 166 mm3 and 171 mm3
NC[C@@H](C(=O)Nc1ccc(-c2cn[nH]c2)cc1)c1ccccc1 — IOP (tonometry; Macaca cyclopis, ocular normotensive; ocular, 0.1%, 72 h): 18.2 mmHg
COc1cc(O)ccc1CCC(c1ccc(O)cc1)c1cc2c(c(C)c1O)OC(c1ccc(O)cc1)CC2 (mixture of isomers) — 5-HEPE level (human blood; 10 µM, added: A23187): 35 ± 17 pg/mL
COc1cc2c(NC3CCN(C(C)C)CC3)cc(N3CCOCC3)nc2cc1OCCCN1CCCC1 — log2 fold change (TMT proteomics, item: PPIA; 5xFAD mice, hippocampus; dose not given; relative to: untreated 5xFAD mice): -0.0272
CO.COc1ccc2c(c1)c(CC(=O)[O-])c(C)n2C(=O)c1ccc(Cl)cc1.COc1ccc2c(c1)c(CC(=O)[O-])c(C)n2C(=O)c1ccc(Cl)cc1.O.[Co+2].c1ccc(Nc2ccccn2)nc1 — ABTS radical cation scavenging (ABTS; DMSO; concentration not given): 95.17 ± 0.24%
COC(=O)C1CN1S(=O)(=O)c1ccc2cc(C)ccc2c1 (centres unmarked) — tumour volume (mouse, Lewis lung carcinoma; ip, 100 mg/kg, 336 h): 751 mm3
O=S(=O)(NCc1ccncc1)c1ccc(C2CCCCC2)cc1 — novel arm preference (Y maze; CK-p25 mice; ip, 0.3 mg/kg daily, 6 wk; above chance): 18.7 ± 11.7%
CC(=O)[O-].O.O.O.O.[Ni+2].[O-]c1ccc(Br)cc1C=NCCN1CCOCC1 — inhibition (DPPH radical scavenging; 200 µM): 50.4%
CC(C)c1ccc(N(C)c2ccc3c(c2)OCC[C@H]3CNc2cnccc2C(=O)O)cc1 — tumour growth inhibition (mouse gastric cancer PDX sample A; 22.5 mg/kg, day 38): 41%
C=CC(=O)N1CC2C(=O)N(CCN(C)C)c3c(c4cc(Cl)c(-c5c(O)cccc5F)nc4n(-c4c(C)ccnc4C(C)C)c3=O)N2CC1C (centres unmarked) — tumour regression (SW837, mouse xenograft; oral, 10 mg/kg once daily): 107%
CC(C)[C@H](NC(=O)[C@H](CC(=O)O)NC(=O)[C@@H](NC(=O)[C@H](Cc1c[nH]c2ccccc12)NC(=O)[C@H](CCC(=O)O)NC(=O)[C@H](C)NC(=O)[C@H](CC(=O)O)NC(=O)CNC(=O)[C@H](Cc1ccc(O)cc1)NC(=O)[C@H](Cc1ccc(OP(=O)(O)O)cc1)NC(=O)[C@H](Cc1ccc(O)cc1)NC(=O)CCNC(=O)c1ccc(C(=O)[O-])c(-c2c3ccc(=[N+](C)C)cc-3oc3cc(N(C)C)ccc23)c1)C(C)C)C(=O)N[C@@H](CO)C(=O)O — necrotic core area (toluidine blue staining; ApoE-/- mice, plaque; dose not given, 21 days): 34.6 ± 2.46%
COc1cc(N2CCN(C(=O)C3CCCN3)CC2)ccc1Nc1ncc(Cl)c(Nc2ccccc2P(C)(C)=O)n1 (centres unmarked) — tumour volume (nude mice, NCI-H3122 xenograft; intraperitoneal, 10 mg/kg every other day, day 1): 37.6 mm3 and 42.5 mm3 and 71.8 mm3 and 43.9 mm3 and 32 mm3
COC1CN([C@H]2CC[C@H]([C@@]3(C)Oc4c(Cl)cc(C(=O)NCc5c(SC)cc(C)[nH]c5=O)c(C)c4O3)CC2)C1 — log2 fold change (RNA-seq, item: CRIM1; human, whole blood; dose not given, 24 h; relative to: pretreatment baseline): 1.27
CN1CCC[C@]1(C)/C=C/S(=O)(=O)NC(=O)Nc1c2c(cc3c1CCC3)CCC2 — IL-18 inhibition (human, whole blood ex vivo; 12.5 mg twice daily, day 1, 12 h, multiple ascending dose, added: LPS and ATP): 81.8%
COc1ccc2cc3[n+](cc2c1OCCCOC(=O)c1cscn1)CCc1cc2c(cc1-3)OCO2 — plasma total cholesterol reduction (hyperlipidemic hamster; oral gavage, 24 mg/kg daily, 3 weeks): 79.2%

For quick reference, copied from above:
CC1(C)CCC(CN2CCN(c3ccc(C(=O)NS(=O)(=O)c4ccc(NCC5CCOCC5)c([N+](=O)[O-])c4)c(Oc4cnc5[nH]ccc5c4)c3)CC2)=C(c2ccc(Cl)cc2)C1 — tumour growth inhibition (mouse Maver1 xenograft; oral, 5 mg/kg once daily, day 14): 38%
